Experimental data pooled from the literature.
Lines come from different studies, so protocols differ. Values joined by “and” are separate records of one study, mostly repeats; a detail may differ. ± gives the spread as reported.

SMILES = CCN1CCN(Cc2ccc(Nc3ncc(F)c(-c4cc(F)c5nc6n(c5c4)[C@H](C)CCC6)n3)nc2)CC1; test system = advanced solid tumour patients; setting = dose not given, Phase Ia monotherapy; endpoint = Hypercalcemia incidence, grade ≥3; value = 0%
SMILES = CC(C)C[C@H](NC(=O)[C@H](CCCCN)NC(=O)OCC1c2ccccc2-c2ccccc21)C(=O)N[C@H](C(=O)N[C@@H](Cc1ccccc1)C(=O)N[C@@H](Cc1ccccc1)C(=O)N[C@@H](CCCCN)C(=O)NCC(=O)N[C@@H](Cc1ccccc1)C(=O)N[C@@H](C)C(=O)N[C@@H](Cc1c[nH]c2ccccc12)C(=O)N[C@@H](CC(N)=O)C(=O)N[C@H](C(=O)N[C@H]1CSSC[C@@H](C(=O)N[C@@H](Cc2c[nH]cn2)C(=O)N[C@@H](CCCNC(=N)N)C(=O)N[C@@H](CCCNC(=N)N)C(=O)N[C@@H](C)C(=O)N[C@@H](CC(N)=O)C(N)=O)NC(=O)[C@H](C(C)C)NC(=O)[C@H](CCCNC(=N)N)NC(=O)[C@H](C(C)C)NC(=O)CNC(=O)[C@H](CC(N)=O)NC(=O)[C@H](CCCNC(=N)N)NC(=O)[C@H](Cc2ccc(O)cc2)NC(=O)[C@H](C(C)C)NC1=O)C(C)C)C(C)C; test = HPLC; test system = mouse mammary gland homogenate; setting = 2560 µM, 12.00 h, 37 °C, 50 mg/mL tissue; endpoint = remaining peptide; value = 61.5% and 58.6% and 56.7%
SMILES = C[C@@H]1OC(=O)NN=C1c1ccc(-c2ccc(F)cc2)c(C(F)(F)F)c1; test = phase I trial, item: Anaemia worst grade 3; test system = human patients; setting = 5 mg once daily; endpoint = patients with adverse event; value = 0%
SMILES = O=C(Oc1ccc(I)cc1)[c-]1cccc1.[Fe+2].c1cc[cH-]c1; test = cyclic voltammetry; test system = methanol/DMEM 1:1 with TBAPF6; setting = Pt disk electrode, Ag/AgCl reference, added: scan rate 100 mV/s; endpoint = oxidation potential; value = 589 mV
SMILES = COc1cc2c(Oc3ccc4[nH]c(C)cc4c3F)ccnc2cc1OCC1(N)CC1; test system = paediatric recurrent refractory sarcoma; setting = 12 mg; endpoint = grade 3 Neutropenia; value = 18.2%
SMILES = Cl.Cn1c(=O)n(CCCCN2CCC3(CC2)OCc2ccccc23)c2ccccc21; test = dose-normalized AUC ratio; test system = Sprague-Dawley rat, male; setting = intravenous, 10 mg/kg; endpoint = brain-to-plasma ratio; value = 0.8 to 1.25
SMILES = O=C(Nc1ccccc1)C1CCN(C(=O)Oc2cccnc2)CC1; test = Bond-Lader VAS; test system = healthy women; setting = oral, 60 mg; scale = relative to: pre-dose baseline, direction not given; endpoint = change in contentment score; value = 12
SMILES = CN1CC[C@@H](c2c(O)cc(O)c3c(=O)cc(-c4ccc(C(F)(F)F)cc4Cl)oc23)[C@@H]1CO; test = item: Constipation; test system = relapsed or refractory haematological malignancies; setting = oral, dose not given, all grades; endpoint = adverse event incidence; value = 17% and 17.5%
SMILES = COc1ncccc1-c1cnn2ccc(N3CCN(C(=O)OC(C)C)CC3)nc12; test system = mouse nerve ligation model, brain; setting = oral, 3 mg/kg, 30 min after last dose, repeat dosing day 2; endpoint = drug concentration; value = 3.9 µM
SMILES = COc1ccc2nc3cc(Cl)ccc3c(Nc3cc(CN4CCCC4)c(O)c(CN4CCCC4)c3)c2n1; test system = mouse, blood; setting = intraperitoneal, 28 mg/kg; endpoint = eosinophils; value = 14.1%
SMILES = CC(=O)c1c(C)c2cnc(Nc3ccc(C4CCN(CCS(C)(=O)=O)CC4)cn3)nc2n(C2CCCC2)c1=O; test system = human, plasma; setting = oral, 25 mg, day 1 single dose; endpoint = t1/2; value = 18.8 h
SMILES = C=CC(=O)Nc1cc(Nc2ncc(C(=O)OC(C)C)c(-c3cn(C)c4ccccc34)n2)c(OC)cc1N(C)CCN(C)C; test system = NSCLC patients, primary efficacy population; setting = 160 mg once daily, one event; endpoint = fatal pneumonitis; value = 0.9%
SMILES = O=S(=O)(F)c1cc(C(F)(F)F)cc(C(F)(F)F)c1; test = chemical stability, HPLC-MS; test system = borate buffered saline; setting = pH 10.2, no N-acetyl-lysine; endpoint = degradation rate constant; value = 27.2 h⁻¹
SMILES = CCc1ccc(CC/C=C/c2ccc3c(c2)C(=O)CC3)cc1; test system = Sprague-Dawley rat, female; setting = oral, 450 mg/kg/day, 14 days; endpoint = ALT serum activity; value = 80.3 U/L
SMILES = O=S(=O)(Nc1ccccc1)c1ccc(NC(=S)Nc2ccccc2)cc1; test = item: EO%; test system = male mouse, blood; setting = oral, 80 mg/kg daily, 14 days; endpoint = blood cell fraction; value = 1.12%
SMILES = C[C@H]1COCCN1c1nc(NCc2cccnc2C(F)(F)F)c2cccnc2n1; test system = male CD-1 mouse, femur bone marrow; setting = oral, 1000 mg/kg twice, 48 h, dosing interval 24 h; endpoint = micronucleated PCE per 2000 PCE; value = 0 and 4 and 1
SMILES = N#C/N=C1\SCCN1Cc1ccc(Cl)nc1; test system = soil; setting = 56 days, nominal 0.12; endpoint = recovery; value = 0%
SMILES = CCN1[C@@H](C(=O)NC23CCC(C(=O)O)(CC2)CC3)[C@H](c2cccc(Cl)c2F)[C@]2(C(=O)Nc3cc(Cl)ccc32)C12CCCCC2; test system = patients with advanced solid tumours; setting = oral, 200 mg; endpoint = any-grade adverse event incidence; value = 100%
SMILES = NCCCC[C@@H]1NC(=O)[C@@H](Cc2c[nH]c3ccccc23)NC(=O)[C@H](c2ccccc2)NC(=O)[C@@H]2C[C@@H](OC(=O)NCCN)CN2C(=O)[C@H](Cc2ccccc2)NC(=O)[C@H](Cc2ccc(OCc3ccccc3)cc2)NC1=O; test system = healthy volunteers; setting = subcutaneous, 600 µg twice daily, day 5, 24.00 h; endpoint = QTcI change from baseline; value = 3.9 ms
SMILES = C[C@]1(CO)Cc2ncn(-c3ccc(C#N)c(Cl)c3)c2C(=O)O1; test system = human, Chinese; setting = 20 mg single dose; endpoint = subjects with drug-related orthostatic hypotension; value = 16.7%
SMILES = Cc1c(COC(=O)[C@@H]2[C@H](/C=C(\Cl)C(F)(F)F)C2(C)C)cccc1-c1ccccc1 (racemic); test = IVIVE scaling; test system = human adult; endpoint = hepatic intrinsic clearance; value = 206 L/h/kg liver
SMILES = COc1cccc(Oc2ccccc2NC(=O)CNC(=O)c2cccc3ccccc23)c1; test system = esterase-deficient SCID mice, male, blood; setting = oral, 100 mg/kg/day, 14 days, toxicity study; endpoint = mean corpuscular volume; value = 46 fL and 44 fL and 48 fL
SMILES = O=C(c1ccc(F)c(F)c1Nc1ccc(I)cc1F)N1CC(O)([C@@H]2CCCCN2)C1; test system = human; setting = oral, 1 mg/kg; endpoint = duration of headache DLT; value = 12 days
SMILES = COc1cc(C2C3=C(COC3=O)N(CCO)c3cc4c(cc32)CCC4)cc(OC)c1OC (stereo not drawn); test system = female C57BL/6 mice; setting = intraperitoneal, 200 mg/kg, 24 h, single dose, mean; endpoint = body weight; value = 21 g
SMILES = CN[C@@H](C)C(=O)N[C@H]1CN(S(=O)(=O)c2cccc(S(=O)(=O)N3CC[C@H]4CC[C@@H](C(=O)NC(c5ccccc5)c5ccccc5)N4C(=O)[C@@H](NC(=O)[C@H](C)NC)C3)c2)CC[C@H]2CC[C@@H](C(=O)NC(c3ccccc3)c3ccccc3)N2C1=O; test system = patients with advanced solid tumours; setting = 30 mg, phase I monotherapy; endpoint = treatment-related AST elevation incidence; value = 33.3%
SMILES = CO[C@H]1C[C@@H]2CC[C@@H](C)[C@@](O)(O2)C(=O)C(=O)N2CCCC[C@H]2C(=O)O[C@H]([C@H](C)C[C@@H]2CC[C@@H](OC(=O)NCCOCCOCCOCCOCCOCCOCCOCCOCCC(=O)N3CCc4cc(Cn5nc(-c6ccc7oc(N)nc7c6)c6c(N)ncnc65)ccc4C3)[C@H](OC)C2)C[C@@H](O)[C@H](C)/C=C(\C)[C@@H](O)[C@@H](OC)C(=O)[C@H](C)C[C@H](C)/C=C/C=C/C=C/1C; test = phase 1 dose escalation, item: neutropenia; test system = advanced solid tumour patients; setting = intravenous, 10 mg weekly, any grade; endpoint = dose-reducing adverse events; value = 0%
SMILES = O=C(O)CCCOc1ccc(F)cc1-c1cc(-c2ccccc2C(F)(F)F)n(-c2ccccc2)n1; test = item: adrenals; test system = Crl:CD(SD) rats, male; setting = iv, 25 µg/kg, 14 days; endpoint = relative organ weight; value = 16.8 ± 3 mg%

For quick reference, copied from above:
SMILES = C[C@]1(CO)Cc2ncn(-c3ccc(C#N)c(Cl)c3)c2C(=O)O1; test system = human, Chinese; setting = 20 mg single dose; endpoint = subjects with drug-related orthostatic hypotension; value = 16.7%
SMILES = Cc1c(COC(=O)[C@@H]2[C@H](/C=C(\Cl)C(F)(F)F)C2(C)C)cccc1-c1ccccc1 (racemic); test = IVIVE scaling; test system = human adult; endpoint = hepatic intrinsic clearance; value = 206 L/h/kg liver
SMILES = COc1cccc(Oc2ccccc2NC(=O)CNC(=O)c2cccc3ccccc23)c1; test system = esterase-deficient SCID mice, male, blood; setting = oral, 100 mg/kg/day, 14 days, toxicity study; endpoint = mean corpuscular volume; value = 46 fL and 44 fL and 48 fL
SMILES = O=C(c1ccc(F)c(F)c1Nc1ccc(I)cc1F)N1CC(O)([C@@H]2CCCCN2)C1; test system = human; setting = oral, 1 mg/kg; endpoint = duration of headache DLT; value = 12 days
